Published values pooled from the literature.
Compare with care: the assays were run in different laboratories.
SLC6A3: Sodium-dependent dopamine transporter (SLC6A3, Homo sapiens, UniProt Q01959)

With `C/C(=N\OCCCN1CCCCC1)c1ccc(C(F)(F)F)cc1` the inhibition was 22.8% (SLC6A3; uptake, inhibitor; 10 µM).
`CCN(CC)CCOc1ccc(-c2nnn(Cc3ccc(OC)cc3)c2N)cc1` has an inhibition of 0.65% (SLC6A3; radioligand binding; CHO-K1; 10 µM, safety profiling).
For `CN[C@@H]1[C@H](O)[C@H](NC)[C@H]2O[C@]3(O)[C@H](O[C@@H]2[C@H]1O)O[C@H](C)C[C@H]3NC(=O)Cc1ccc(Cl)cn1`, the inhibition was 17% (SLC6A3; ligand displacement, radioligand; 10 µM).
For `Cc1cc(Nc2nc(C[C@@]3(C(=O)O)CCN(Cc4cccc(Cl)c4F)[C@H](C)C3)cc(C)c2F)[nH]n1`, the inhibition was 21.5% (SLC6A3; inhibitor; 10 µM).
`N[C@H](C(=O)N1CCCC1)C1CCN(c2nccc3c(-c4ncc(Cl)cc4Cl)cccc23)CC1` has an inhibition of 25% (SLC6A3; ligand displacement; 10 µM).
For `CS(C)(=O)=Nc1ccc(-c2ccc(-c3nc4cc(O[C@@H]5CO[C@H]6[C@@H]5OC[C@H]6O)[nH]c4cc3F)cc2)cc1`, the inhibition was 13% (SLC6A3; ligand displacement, radioligand; 10 µM).
With `Cc1sc2c(c1C)C(c1ccc(Cl)cc1)=NC(CC(=O)OC(C)(C)C)c1nnc(C)n1-2` (stereo not shown) the inhibition was -7% (SLC6A3; ligand displacement, radioligand; 1 µM).
`CCOCC1C(c2ccc(Cl)c(Cl)c2)CC2CCC1N2C` (stereo not shown) has a remaining activity of 106% (Sodium-dependent dopamine transporter (SLC6A3, Homo sapiens, UniProt Q01959, F326A); dopamine uptake; 0.002 µM, 0.03333 h, F326A mutant, together with: [3H]dopamine; relative to: no inhibitor).
For `CCCO[C@H]1[C@H](O)[C@@H](N)[C@@H](O[C@H]2[C@H](O[C@@H]3O[C@H](CO)[C@@H](O[C@H]4O[C@@H](CN)[C@@H](O)[C@H](O)[C@H]4N)[C@H]3O)[C@@H](O)[C@H](N)C[C@@H]2N)O[C@@H]1CO`, the specific binding was 2% (SLC6A3; radioligand binding; 10 µM, 1% DMSO).
For `CCc1nnc(-c2c(OC)cc(-c3cnc4cc(-c5cnn(C)c5)ccn34)cc2OC)o1`, the remaining binding was 92.6% (SLC6A3; antagonist radioligand, radioligand binding; 10 µM, SafetyScreen44 dopamine transporter replicate 2; lower = stronger displacement).

For quick reference, copied from above:
For `CN[C@@H]1[C@H](O)[C@H](NC)[C@H]2O[C@]3(O)[C@H](O[C@@H]2[C@H]1O)O[C@H](C)C[C@H]3NC(=O)Cc1ccc(Cl)cn1`, the inhibition was 17% (SLC6A3; ligand displacement, radioligand; 10 µM).
